Measured values gathered from unrelated publications.
Numbered parts are unrelated; each lists some results of a single study.
UniProt P16220, sequence (whole entry, looked up): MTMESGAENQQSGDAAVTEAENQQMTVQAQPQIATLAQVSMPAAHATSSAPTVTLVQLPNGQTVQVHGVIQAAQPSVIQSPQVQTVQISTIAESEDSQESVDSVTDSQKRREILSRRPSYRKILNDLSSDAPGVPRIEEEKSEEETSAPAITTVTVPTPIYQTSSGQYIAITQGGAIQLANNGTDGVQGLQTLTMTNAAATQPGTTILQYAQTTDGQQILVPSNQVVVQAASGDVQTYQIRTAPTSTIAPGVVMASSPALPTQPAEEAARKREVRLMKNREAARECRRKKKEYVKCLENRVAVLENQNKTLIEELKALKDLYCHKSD
UniProt Q9H116, sequence (whole entry, looked up): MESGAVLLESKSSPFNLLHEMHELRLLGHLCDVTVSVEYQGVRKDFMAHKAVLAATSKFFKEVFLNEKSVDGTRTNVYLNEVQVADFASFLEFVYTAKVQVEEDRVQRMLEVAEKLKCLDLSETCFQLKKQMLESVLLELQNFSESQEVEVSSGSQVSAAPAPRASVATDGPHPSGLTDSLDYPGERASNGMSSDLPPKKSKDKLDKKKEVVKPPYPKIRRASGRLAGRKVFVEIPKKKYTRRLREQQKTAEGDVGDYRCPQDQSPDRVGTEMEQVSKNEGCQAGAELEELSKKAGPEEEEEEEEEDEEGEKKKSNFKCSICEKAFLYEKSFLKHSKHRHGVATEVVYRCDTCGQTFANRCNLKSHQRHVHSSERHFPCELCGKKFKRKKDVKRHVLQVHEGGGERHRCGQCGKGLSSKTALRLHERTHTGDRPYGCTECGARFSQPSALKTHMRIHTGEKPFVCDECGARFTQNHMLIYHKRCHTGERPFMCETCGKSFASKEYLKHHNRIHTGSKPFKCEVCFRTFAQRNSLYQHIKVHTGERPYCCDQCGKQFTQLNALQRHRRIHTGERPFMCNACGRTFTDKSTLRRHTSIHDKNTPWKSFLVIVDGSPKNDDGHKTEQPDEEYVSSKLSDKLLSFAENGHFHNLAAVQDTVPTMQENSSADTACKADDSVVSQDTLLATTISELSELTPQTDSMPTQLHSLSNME

Set 1 — technique: RNA Bind-n-Seq; form: RNA; medium: in vitro; concentration: 365 nM; relative to: no-protein control; direction: higher = stronger binding
Target: RNA binding protein fox-1 homolog 2, RRM domain, GST-SBP tag (RBFOX2, Homo sapiens, UniProt O43251-10, residues 100-194)
Notes: natural RNA segment, single round, ends assumed
Shared flanks, not repeated: GGGAGUUCUACAGUCCGACGAUC … UGGAAUUCUCGGGUGCCAA
Residues (chain): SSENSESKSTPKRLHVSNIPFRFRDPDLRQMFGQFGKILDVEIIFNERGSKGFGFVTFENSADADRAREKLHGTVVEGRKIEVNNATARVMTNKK
Strand | RBNS enrichment (R)
AGCUGGCCUCUCUCAUCUCUCAGAUCAUGUCUAUCUCAGGGGCCACAAUAAGAAACAUACUCUCCAUAGUGCCAAGGCUACACAGAAACCCUGCCUCAAAAAAACAAGCA | 0.662
GAUGUAGGGUUUAUUGAAAAUGUGUGGGUUAAAUGCUUUCAGGUACACCAAUUCUUUCUACUAAAUUGAGCUCUAUUUGAAGUUCUUUGGAAUCUGUGGUGAAAAAUAAU | 0.678
GGCUGCAGAGGAGUCAGGCGGGAAGAGAGGAGUCGGAGAAGCACACAAGGUCCUUGUGCAGGAGUCCCCAGAGACCUAGCUGCAGCUCAGGCCGACUGAAGCAGGCCUGG | 0.826
UGAAAUUCAAAUUCUCGUUUAGAAGUGAAAGCUGUCAGGUUGAUAGCAAGCAUGCACAUCAAAUUCACCAGAAGUACAACCCAUCGGCGCAGUCAGAGGAUGGAGUCUGA | 27.4
CUCCCUCUAUGUCUAUGGUGUCCCCUGGGUUACACAGCUAAACGUGAGGGACCAUCUACCCCCCACCUAUCCUCGAGCACCAGGCUUGUGAGAUGAGACAGAGGGUGGAG | 0.293
GAAUAAGGUGUCACCUCCCUGAAAUUGCAUAUAUGUAUAUAGACAUGCACACGUGUGCAUUUGUUUGUAUACAUAUAUUUGUCCUUCGUAUAGCAAGUUUUUUGCUCAUC | 0.332
AGGACAAGGGCCCAGAACUGAAACUUGAUCUUAAAAUUUACCAUGGAAAUGAGGUCUUAGGCUCUUCUUUAAAUGUGUGUACUUUUAUCUGUGAGAGACUGACUAUAGCA | 3.32
UUUUUUUCUAAGGUUUAAGCACAUGCCUUUUGUAUUAUGCAGUAUAUAAUGGGUGUGCAGCCAUAGCGAAGCUUUGAGAAGCCCCAAGCCUCAACUGUAACCUGCAGCAA | 0.488

Set 2 — read-out: enzyme activity; action: inhibitor; concentration: 20 µM; notes: primary screen
Target: Replicase polyprotein 1ab, main protease (rep, Severe acute respiratory syndrome coronavirus 2, UniProt P0DTD1)
Compound | inhibition
CCOC(=O)c1ccc(N2NC(=O)/C(=C/c3ccc([N+](=O)[O-])o3)C2=O)cc1 | 70.9%
Cc1ccc(S(=O)(=O)c2ccc([N+](=O)[O-])o2)cc1 | 65.7%
Cc1ccc(C)c(-n2sc3cc(F)ccc3c2=O)c1 | 101%

Set 3 — cell line: HEK-293T; read-out: pseudovirus infection; organism: VSV pseudotyped with SARS-CoV-2 spike; concentration: 10 µM; time: 16 h; relative to: vehicle-treated
Structure (SMILES) | GFP-positive cells [%]
COC(=O)N[C@H](C(=O)N[C@@H](Cc1ccccc1)[C@@H](O)CN(Cc1ccc(-c2ccccn2)cc1)NC(=O)[C@@H](NC(=O)OC)C(C)(C)C)C(C)(C)C | 102
CN(C)C/C=C/C(=O)Nc1cc2c(Nc3ccc(F)c(Cl)c3)ncnc2cc1O[C@H]1CCOC1 | 49.8
Cc1ccc(N(CC2=NCCN2)c2cccc(O)c2)cc1 | 91.7

Set 4 — action: inhibitor; concentration: 20 µM
Target: Replicase polyprotein 1ab, nsp13 helicase (rep, Severe acute respiratory syndrome coronavirus 2, UniProt P0DTD1)
SMILES | inhibition [%]
COc1ccc(OC)c([C@@H](O)[C@H](C)N)c1 | 8.09
c1ccc2nc(C3=NCCN3)cnc2c1 | 4.49
C=CCN1C[C@H](C)N([C@H](c2ccc(C(=O)N(CC)CC)cc2)c2cccc(OC)c2)C[C@H]1C | 8.19
O=C(c1ccc(OCCCc2c[nH]cn2)cc1)C1CC1 | 5.1
Cc1ccc2c(Br)cc(Br)c(OC(=O)c3ccccc3)c2n1 | -7.79
O=C(Nc1ccc(S(=O)(=O)Nc2nccs2)cc1)C(c1ccccc1)c1ccccc1 | -0.56
CCCOc1ccc2c(c1)CC[C@@H]1[C@@H]2CC[C@]2(C)[C@@H](OC)CC[C@@H]12 | 5.89
COc1cc(OC)c(NC(=O)Nc2cc(C)on2)cc1Cl | -2.87
CC(C)C[C@@H](C(=O)N[C@@H](Cc1ccc(OCc2ccccc2)cc1)C(=O)NC(C)(C)C)N(C)Cc1ccc(C(C)(C)C)cc1 | 1.92
NC(=O)c1ccc(N(C(N)=O)c2c(F)cccc2F)nc1-c1ccc(F)cc1F | 3.95
Cc1ccnc2c1CCCC2C(N)=S (stereo not drawn) | 6.69
O=S(=O)(O)NC1CCCCC1 | 5.31
COc1cc(C[C@H](C)[C@H](C)Cc2ccc3c(c2)OCO3)ccc1O | 0.93
CNC(=O)c1cc(COc2nnc(Nc3ccc(Cl)cc3)c3ccoc23)ccn1 | 4.84
CN(C)CC(c1ccc(O)cc1)C1(O)CCCCC1 (stereo not drawn) | 5.86
Cc1cnc(C(=O)O)c[n+]1[O-] | 8.29
C[C@@H]1O[C@@H](OC[C@H]2O[C@@H](Oc3c(-c4ccc(OCCO)c(OCCO)c4)oc4cc(OCCO)cc(O)c4c3=O)[C@H](O)[C@@H](O)[C@@H]2O)[C@H](O)[C@H](O)[C@H]1O | 7.83
O=C(NNc1ccccc1)c1ccncc1 | 7.01
COc1ccc(C2C(=O)c3ccccc3C2=O)cc1 | -0.59
O=C1OC2(c3ccc(O)cc3Oc3cc(O)ccc32)c2ccccc21 | -5.56
O=C(Nc1cccc(C(F)(F)F)c1)Nc1cc(S(=O)(=O)NC2CC2)ccc1-c1ccsc1 | 2.81
Cc1ccc2c(=O)c3cccc(CC(=O)O)c3oc2c1C | 28.2
Cc1cc(O)c2c(c1)C(=O)c1cccc(O)c1C2=O | 22.1
COc1ccc(C(=O)Nc2c(Cl)cncc2Cl)cc1OC1CCCC1 | 4.98
O=C(CCc1ccc(O)cc1)c1c(O)cc(O)cc1O | 0.23

Set 5 — technique: RNAcompete; form: RNA; medium: in vitro; concentration: 20 nM; notes: 7-mer, probes averaged, single round; relative to: mean of 7-mers; direction: higher = stronger binding
Target: PABPC1L2, full length, GST fusion (mouse, UniProt A0ABA7IW68)
Residues (chain): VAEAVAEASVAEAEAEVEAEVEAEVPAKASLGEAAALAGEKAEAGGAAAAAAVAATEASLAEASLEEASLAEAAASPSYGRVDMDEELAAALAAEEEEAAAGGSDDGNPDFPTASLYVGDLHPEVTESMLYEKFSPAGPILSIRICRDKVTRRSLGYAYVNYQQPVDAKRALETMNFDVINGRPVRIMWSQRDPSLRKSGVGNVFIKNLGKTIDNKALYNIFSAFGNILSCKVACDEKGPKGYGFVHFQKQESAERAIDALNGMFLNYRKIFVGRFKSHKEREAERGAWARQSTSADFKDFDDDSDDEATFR
Strand | 7-mer Z-score
CAAAUCU | -0.0627
GUCCUUA | -0.353
GCAUUAA | 0.0895
UUUUACU | -0.151
GGUCCGU | -0.104
GGAGGGA | 0.334
AGAGGGC | 0.253
GCAGUAC | -0.0754

Single results of other studies — technique: protein-binding microarray; form: hairpin DNA; medium: in vitro; concentration: not given; relative to: not given; direction: higher = stronger binding
Notes: whole hairpin DNA, median over replicate spots
Strand | target | median fluorescence [a.u.]
GAGGCCGGCGGACGTCAGCCTCCTGGCTGACGTCCGCCGGCCTCACACTC (5mC at 35) | Cyclic AMP-responsive element-binding protein 1, full length (CREB1, Homo sapiens, UniProt P16220, residues 1-327) | 4160
GAGGCCTAGCACGGGCTGCCTCCTGGCAGCCCGTGCTAGGCCTCACACTC (5mC at 31) | Microphthalmia-associated transcription factor, full length (MITF, Homo sapiens, UniProt O75030-10, residues 1-413) | 7560
CGGACCGGCCCGGGCATGTCTCCTGACATGCCCGGGCCGGTCCGACACTC (5mC at 6) | Cellular tumor antigen p53, full length (TP53, Homo sapiens, UniProt P04637, residues 1-393) | 11100
GAGGCCATTAGGGTAATGCCTCCTGGCATTACCCTAATGGCCTCACACTC (5mC at 34) | GDNF-inducible zinc finger protein 1, full length (GZF1, Homo sapiens, UniProt Q9H116, residues 1-711) | 371

For quick reference, copied from above (set 1):
Strand | RBNS enrichment (R)
GAAUAAGGUGUCACCUCCCUGAAAUUGCAUAUAUGUAUAUAGACAUGCACACGUGUGCAUUUGUUUGUAUACAUAUAUUUGUCCUUCGUAUAGCAAGUUUUUUGCUCAUC | 0.332
GGCUGCAGAGGAGUCAGGCGGGAAGAGAGGAGUCGGAGAAGCACACAAGGUCCUUGUGCAGGAGUCCCCAGAGACCUAGCUGCAGCUCAGGCCGACUGAAGCAGGCCUGG | 0.826
GAUGUAGGGUUUAUUGAAAAUGUGUGGGUUAAAUGCUUUCAGGUACACCAAUUCUUUCUACUAAAUUGAGCUCUAUUUGAAGUUCUUUGGAAUCUGUGGUGAAAAAUAAU | 0.678
AGCUGGCCUCUCUCAUCUCUCAGAUCAUGUCUAUCUCAGGGGCCACAAUAAGAAACAUACUCUCCAUAGUGCCAAGGCUACACAGAAACCCUGCCUCAAAAAAACAAGCA | 0.662
UUUUUUUCUAAGGUUUAAGCACAUGCCUUUUGUAUUAUGCAGUAUAUAAUGGGUGUGCAGCCAUAGCGAAGCUUUGAGAAGCCCCAAGCCUCAACUGUAACCUGCAGCAA | 0.488
CUCCCUCUAUGUCUAUGGUGUCCCCUGGGUUACACAGCUAAACGUGAGGGACCAUCUACCCCCCACCUAUCCUCGAGCACCAGGCUUGUGAGAUGAGACAGAGGGUGGAG | 0.293
